Published values of several laboratories.
Each numbered part is a random draw from the data of one study; scales do not carry over between parts.

Sample 1
Target: Fragile X messenger ribonucleoprotein 1, C-terminal low-complexity region (Fmr1, Mus musculus, UniProt P35922)
Method: RNA Bind-n-Seq
Form: RNA
Medium: in vitro
Concentration: 200 nM
Setting: whole 134-nt RNA, ends assumed
Together with: 150 mM KCl
Relative to: input library
Reading: higher = stronger binding
Endpoint: log2 enrichment
Shared flanks, not repeated: GGGAGUUCUACAGUCCGACGAUC … UGGAAUUCUCGGGUGUCAAGG
Sequence = UCAAGUCCUGUGCUACACAUCGUAUGUACCGAAUCGGUUUGGUUUUUUUGGUGGAAAGUAUUAUGUUACGCCGUUCGGAUCUGCACUUCC; result = -0.256
Sequence = GCAGGAAGUAAAAACAAAGGGAAAUGCUUCGGAUAGUGGCAGGGGUGGGGGUUGCUAAGGAAAGGGUGGGAUGGGAGUGGGUAAAGAGUU; result = 0.687
Sequence = UCCUCAAGUCCUGUGCUACACAUCGUAUGUACCGAAUCGGAGGGAGGAGGGGAAAGUAUUAUGUUACGCCGUUCGGAUCUGCACUUCCAG; result = 0.548
Sequence = UCCUGUGCUACACAUCGUAUGUACCGAAUCGGCCCCCCGGGGCCCCCCGGCCCCCCGGGAAAGUAUUAUGUUACGCCGUUCGGAUCUGCA; result = -0.711
Sequence = GUCCUGUGCUACACAUCGUAUGUACCGAAUCGGGGUUUUUUUGGGGAGGGGAAAGGGGAAAGUAUUAUGUUACGCCGUUCGGAUCUGCAC; result = 0.399
Sequence = AGUCCUGUGCUACACAUCGUAUGUACCGAAUCGGGUUUUUUUGGGUGGGUUUUUGGGAAAGUAUUAUGUUACGCCGUUCGGAUCUGCACU; result = 0.834
Sequence = GCAGGAAGUAGAAACAAAUGGAAAUGCUUCGGAUAGUGGCAGGGGUGGGGGUUGCUAAGGAAAGGGUGGGAUGGGAGUGGGUAAAGAGUU; result = 0.787
Sequence = AAGUCCUGUGCUACACAUCGUAUGUACCGAAUCAAAUUUAAACCCCCAAACCCAAAAAAGUAUUAUGUUACGCCGUUCGGAUCUGCACUU; result = -0.292
Sequence = CCUGUGCUACACAUCGUAUGUACCGAAUCGGGCCCCCCCGGGCCCCCCCGGCCCCCCCGGGAAAGUAUUAUGUUACGCCGUUCGGAUCUG; result = -0.601
Sequence = AGUCCUGUGCUACACAUCGUAUGUACCGAAUCGGGAAAAAGGGUUUGGGUUUUUGGGAAAGUAUUAUGUUACGCCGUUCGGAUCUGCACU; result = -0.00657
Sequence = UCAAGUCCUGUGCUACACAUCGUAUGUACCGAAUCGGGGUUUGGGUUUGGUUUGGAAAGUAUUAUGUUACGCCGUUCGGAUCUGCACUUC; result = -0.00225
Sequence = GUCCUGUGCUACACAUCGUAUGUACCGAAUCGGAAAAAGGAAAAAAAGGUUUUUUUGGAAAGUAUUAUGUUACGCCGUUCGGAUCUGCAC; result = -1.12
Sequence = CACAGACAACACGCAACCACACAGACACAGAGGGAAGGGGUUGGGAUGGGGACAGGGUGCACAGCAGGGCGGGGUAGGACCCCAGCCCCU; result = 1.33
Sequence = UGGGAGGUGGAUUUUGUUUAUUUUUUUAGCUCAUUUCCAGGGGUGGGAAUUUUUUUUGAAUAUGUGUCAUGAAUAAAGUUGUUUUUGAAA; result = 0.178

Sample 2
Target: Histone acetyltransferase KAT6A, winged helix 1, GST fusion (KAT6A, Homo sapiens, UniProt Q92794, residues 1-85)
Method: protein binding microarray
Form: double-stranded DNA, one strand shown
Medium: in vitro
Concentration: not given
Setting: 8-mer, flanks averaged, mean of 2 arrays, mostly near background
Relative to: not given
Reading: higher = stronger binding
Endpoint: E-score
Target sequence (chain): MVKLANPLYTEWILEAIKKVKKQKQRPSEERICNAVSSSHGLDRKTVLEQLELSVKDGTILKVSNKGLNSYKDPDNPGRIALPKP
Sequence = GATTATGA; result = -0.282
Sequence = CTTAGAGA; result = -0.151
Sequence = ACCTACTA; result = 0.0136
Sequence = TCCCGCCA; result = 0.205
Sequence = CCGTGGGA; result = 0.114
Sequence = CAACTTGG; result = -0.109
Sequence = AAGCGCTA; result = 0.326
Sequence = AATTCCAA; result = -0.194
Sequence = AGGATCCG; result = 0.175
Sequence = ATCGCAGA; result = -0.131
Sequence = ATACTAGG; result = -0.0845
Sequence = GGTTCCAA; result = 0.032
Sequence = ATTAGCCC; result = 0.0379
Sequence = ACCCAAGG; result = 0.00717
Sequence = CGTCCCTC; result = 0.071
Sequence = CTTGCTGA; result = -0.224
Sequence = AGTATGAT; result = -0.141
Sequence = GCAGGCGA; result = -0.0451
Sequence = AGACTGCT; result = -0.186
Sequence = GAGGCCCA; result = 0.0289
Sequence = CCAGATCA; result = -0.109
Sequence = TCCCGGGA; result = 0.402
Sequence = AGCGACGA; result = -0.125
Sequence = GTTACTCA; result = -0.0182
Sequence = CGTCTGTA; result = -0.0329

Sample 3
Target: RNA binding protein fox-1 homolog 2, RRM domain, GST-SBP tag (RBFOX2, Homo sapiens, UniProt O43251-10, residues 100-194)
Method: RNA Bind-n-Seq
Form: RNA
Medium: in vitro
Concentration: 365 nM
Setting: natural RNA segment, single round, ends assumed
Relative to: no-protein control
Reading: higher = stronger binding
Endpoint: RBNS enrichment (R)
Shared flanks, not repeated: GGGAGUUCUACAGUCCGACGAUC … UGGAAUUCUCGGGUGCCAA
Target sequence (chain): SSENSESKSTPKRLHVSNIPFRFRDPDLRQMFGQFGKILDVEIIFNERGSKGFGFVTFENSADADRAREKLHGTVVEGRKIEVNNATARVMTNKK
Sequence = AUAUCCCUACCUUGAAAGAAGAAAAGGUUCUUACUGCUUGGUCCUUGAUUUAUCACACAAAGCAGAAUAGUAUUUUUAUAUUUAAAUGUAAAGACAAAAAACUAUAUGUA; result = 0.538
Sequence = UGUCACCUUCUCAUUUGCUGUGUGACUUUGGCCCACUCACAUUCUCUUUGGGCCUCAGUUUUAUCAUUUAUACAAGGAGGGCUUUUCUAGCUGUAACAAUCUGUGAGGAU; result = 0.241
Sequence = CUAAACAAGUGGCCGCGUGUAAAAACAGACAGCUCUGAGUCAAAUCUGGGCCCUUCCACAAGGGUCCUCUGAACCAAGCCCCACUCCCUUGCUAGGGGUGAAAGCAUUAC; result = 0.231
Sequence = CAUGGCUUCACUUUCCUGUGUUAUGAGAAGGUCACACUUUGGAAUACUGAAGGACAAUCCUGAAGUGCUGCAGCGCAUAGUGAAUGCCUCUUGGUGUUUUCACGUUCGUC; result = 0.281
Sequence = GCAGGCCUAGUGUAUACAAACUGGUUGUAUGUAUCAUGCCGUGGAGCUAGGGGGAGGAGUCAUUGUGGCACAAGUAUUUGUACAUACUCUGCUUCUCUCUGUCAGCGUCC; result = 0.233
Sequence = GGCAAGGAUUUGCCAAAAAUGUUCUGGGGGCCCAGCAAAUGCAGGAGCCGACCUGGGGCUGCACAUCCCUGCCCAUCCCCAGAAAGACUGUUCCUGUCAGGAUUUGUUUC; result = 0.431
Sequence = UUGUGAAGCUAUAGUACAUGUAGGCAUUUAGUUAAGUAUAGCAAUUCAAACUGACCUGCAUCCAUCCAAAACAAAUUCCUCCUUCAACCUUAUUUUUACUUGAAAUUUGC; result = 0.901
Sequence = CUGUGUUGUUUUUCUGCUGAGGGUGGAAUAUUCUGUCCUUUUAAUCAAGGUGAUUGUGAUUUUGACUAAUAAAAAGGACUUUAUAAUUGUGGGGGGACUUGGCUUUAAGA; result = 0.941
Sequence = UUCGGGUGACCAGGUGCUUGUGACCUACAAGUCAGAGUCCUCUCUCACAGUCGGCCACUGGAUUUCCCUCACUGGCUCUCAGGAGUGUGACCAGAGUAGACUUGGGGCAU; result = 0.225
Sequence = GAAAACUCACUUCAAUGAACAAAGGGAUUCUCCAGGAUUCCAAAGUUUUGAAGUCAUCUUAGCUUUCCACAGGAGGGAGAGAACUUAAAAAAGCAACAGUAGCAGGGAAU; result = 0.398
Sequence = CCUUGGGAGCCACAGGAUUUAACUGGAGCAGACAGGAAACCCUUGGGGAGCAGGCUCAGGCUUCCCCAGCCCCAUCCCAAGCCCUUCAGUGCCAAAAACAAAGAAAUGAA; result = 0.286
Sequence = AAGAUUGUAUGCUAUUAUGUCUUGUAAAAAUUCCUUCUGUUGGUGUAAAUAUGGAAAUGCCACAUUGGUUAAGUGCCAUCAAUUGUAAUGCAGUGUGUCAUUUGAAAAGA; result = 1.54

Sample 4
Target: RING finger protein unkempt homolog, zinc fingers 1-6, SBP tag (UNK, Homo sapiens, UniProt Q9C0B0, residues 30-357)
UniProt Q9C0B0, sequence (30-357, looked up): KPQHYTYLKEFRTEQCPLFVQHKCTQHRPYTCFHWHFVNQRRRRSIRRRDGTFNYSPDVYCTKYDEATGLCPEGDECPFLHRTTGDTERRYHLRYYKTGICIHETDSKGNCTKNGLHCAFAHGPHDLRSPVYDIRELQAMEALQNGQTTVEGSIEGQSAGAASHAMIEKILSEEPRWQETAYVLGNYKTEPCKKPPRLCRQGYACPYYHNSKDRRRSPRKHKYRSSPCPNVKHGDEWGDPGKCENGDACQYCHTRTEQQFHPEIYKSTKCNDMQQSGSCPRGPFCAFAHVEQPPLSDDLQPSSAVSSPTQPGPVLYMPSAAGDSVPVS
Method: RNA Bind-n-Seq
Form: RNA
Medium: in vitro
Concentration: 100 nM
Setting: RNA with constant flanks, vertebrate orthologous sites, ends assumed
Relative to: input RNA pool
Reading: higher = stronger binding
Endpoint: bound/input enrichment
Shared flanks, not repeated: GGGAGUUCUACAGUCCGACGAUC … CAACAGAGGAUUGAGCAUCA
Sequence = UCCCAGCACUUUGAUAAAAAGUGUGGACUGGUUGCUUGUAUUUUCCUUAUUCUUUUUAAUUAGUUUUAUUAUGUAUGCUACCAUUCGAACUGAGAGUAUUCGGUGGUUAAUUCCAGGACA; result = 3.38 ratio
Sequence = CUCGGGGAUACCAUGGGGCGCUGCUGACUGCUUCGCGUCGUUUGAUUUGUGACCUUGACAUAAUAGAUAGGCUUGUGGUUUGUUCGUUUUUUUAAUUUAAAGAUAUUAAAACUUAAUUCA; result = 0.588 ratio
Sequence = CUACUGUAAACAACUCAGGGCAGUAUUCUCGAUACCCUUACAGUAACCUAAAUCAGGGAUUAGUUAACAGUACAGGGAUGAAUCAAAAUUUAGGCCUUACAAACAGUACUCCAAUGAAUC; result = 1.1 ratio
Sequence = ACAGAAGAAGAGCUCACAACUCAAAAGGAACUAUUAAAAGAGUUUCUAAUGGCUGAAAGCUAGGAAAAAUUAGGACAAUUUUACAAAUGAGCCAUUAAAACAAAACAAAAAAAGAUAUGG; result = 1.1 ratio
Sequence = UUGGGACCAGCUCUCCAAAUAAGAACACUAUUAAAAAAAAUAAGCAAAAUGAUAUUUGUAUAGAAAAAACAGAAGUUAAAUCAUGUAAAGUAGCUGCCAACAUAGCAAGCCCUAAAGAUU; result = 1.13 ratio
Sequence = UGUGCUCAUGCUCUUCUAGGGAAGAAAUGAACUGGGGAGAACUGUCCCCUUUUUAUAGAUUAGUUUGUUUCUAAAUUAUGACCAAAAAAUAUUUUGCUAUUUCUUUCUUUAUAUAUGGAC; result = 1.02 ratio
Sequence = UCUCUCACUUAGCUGUGUCCAAAAUUGCUAUGAGGGUUGGAAACGUUGAUUAGUUUCAUGUAGAACUACACUGGCAGGUGCUCAAUUACCAUCAUAGCAAGGUCAAAUACCAUCACAGUA; result = 1.22 ratio
Sequence = AGCCUGCACCAGUGCUCUUCUGUGGAAGAGAUGAACUGGGGAAAACAUCUUUUUACAGACUACUUUGUUUCUAAAUUAUGACCAAAAAUAUUUUGGUAUUUCUUUAUAUAUGGAAUCUUU; result = 0.428 ratio
Sequence = AAUCAGUAGAAUUACAUAAUACUAAAGUUGCAGUUGAAAGGAUAUCCAAGUAUGUGUUGGUAGUUACUAAAAGAAUUAUAGCUGUUAUUGCCUUGUAUUUAUAGCCCUGUUUCAGGUUUC; result = 0.986 ratio
Sequence = GGUGGUGGGGCCCAGGCCCUGCCACUCAGGGGCCUGCUGGCCACCUCAGCCAGGCUGUUUUAGUUCUGUAAUUUUUUAACAGUGCCCUUACUUCCUGAACAUGAGUCUGAGAUUUGAAAA; result = 0.412 ratio
Sequence = AUUUAAAAUGUAUUUAGUUACACUUAAUGACUUCGUUCCUGAGUUCUUUUUUCAUCGAAGUAGCUUUCAUUUUUAUAAUUGCAGUUUUAAUAAUAUGAAUAAGUAGAAAGCUUGUGCCAG; result = 0.228 ratio

Repeated from above (sample 3):
Sequence = GGCAAGGAUUUGCCAAAAAUGUUCUGGGGGCCCAGCAAAUGCAGGAGCCGACCUGGGGCUGCACAUCCCUGCCCAUCCCCAGAAAGACUGUUCCUGUCAGGAUUUGUUUC; result = 0.431
Sequence = UUGUGAAGCUAUAGUACAUGUAGGCAUUUAGUUAAGUAUAGCAAUUCAAACUGACCUGCAUCCAUCCAAAACAAAUUCCUCCUUCAACCUUAUUUUUACUUGAAAUUUGC; result = 0.901
Sequence = CUGUGUUGUUUUUCUGCUGAGGGUGGAAUAUUCUGUCCUUUUAAUCAAGGUGAUUGUGAUUUUGACUAAUAAAAAGGACUUUAUAAUUGUGGGGGGACUUGGCUUUAAGA; result = 0.941
Sequence = UUCGGGUGACCAGGUGCUUGUGACCUACAAGUCAGAGUCCUCUCUCACAGUCGGCCACUGGAUUUCCCUCACUGGCUCUCAGGAGUGUGACCAGAGUAGACUUGGGGCAU; result = 0.225
Sequence = GAAAACUCACUUCAAUGAACAAAGGGAUUCUCCAGGAUUCCAAAGUUUUGAAGUCAUCUUAGCUUUCCACAGGAGGGAGAGAACUUAAAAAAGCAACAGUAGCAGGGAAU; result = 0.398
Sequence = CCUUGGGAGCCACAGGAUUUAACUGGAGCAGACAGGAAACCCUUGGGGAGCAGGCUCAGGCUUCCCCAGCCCCAUCCCAAGCCCUUCAGUGCCAAAAACAAAGAAAUGAA; result = 0.286
